{"data": "Measurements pooled from the literature", "matrix": "plasma", "note": "Protocols differ between the studies behind these lines. ± marks the error that the study gave."}
{"SMILES": "CCCC(=O)OCSc1ccccc1C(=O)NCCC(N)=O", "system": "Sprague-Dawley rat, male", "setting": "intravenous, 50 mg/kg", "Cmax": "3 ± 4.1 ng/mL"}
{"SMILES": "NC1(c2ccccc2Cl)CCCCC1=O (racemic)", "system": "male Wistar rats", "setting": "intraperitoneal, 40 mg/kg single dose", "Cmax": "2560 ± 850 ng/mL"}
{"SMILES": "C[C@H]1CNCCc2ccc(Cl)cc21", "system": "male Sprague-Dawley rat", "setting": "subcutaneous, pimavanserin 0.5 + lorcaserin 0.5 mg/kg, pimavanserin 15 min earlier", "Cmax": "14.7 ± 0.71 ng/mL"}
{"SMILES": "COc1ccc2c(c1)[C@]13CCCC[C@@H]1[C@H](C2)N(C)CC3", "system": "Wistar rat, both sexes", "setting": "oral, 5 mg/kg, 2 h after pretreatment, added: single TCE 100 mg/kg", "Cmax": "71.8 ± 13.6 ng/mL"}
{"SMILES": "COc1ccc2c(c1)[C@]13CCCC[C@@H]1[C@H](C2)N(C)CC3", "assay": "refers to: MDMA", "system": "rat", "setting": "intraperitoneal, 30 mg/kg, three doses, added: MDMA 20 mg/kg oral", "how to read": "reference: MDMA with saline", "Cmax": "no effect"}
{"SMILES": "CNC(=O)c1ccc(-c2cnn3ccc(C(=O)N(C)c4ccc(Cl)c(C(=O)OC)c4)cc23)cc1", "system": "Wistar rats, both sexes", "setting": "oral, 500 mg/kg/dose, 1000 mg/kg/day, day 1", "Cmax": "3.32 ng/mL"}
{"SMILES": "CN1CC[C@@]23CCCC[C@@H]2[C@@H]1Cc1ccc(O)cc13", "system": "Wistar rat, both sexes", "setting": "oral, 5 mg/kg DEM, DEM 2 h after pretreatment, added: TCE 100 mg/kg single pretreatment", "Cmax": "19.9 ± 10.9 ng/mL"}
{"SMILES": "Cc1cccc(C)c1OCC(=O)N[C@@H](Cc1ccccc1)[C@@H](O)C[C@H](Cc1ccccc1)NC(=O)[C@H](C(C)C)N1CCCNC1=O", "system": "male Sprague-Dawley rats", "setting": "oral, 160 mg/kg, alone", "Cmax": "1140 ng/mL"}
{"note": "For quick reference, copied from above:"}
{"SMILES": "NC1(c2ccccc2Cl)CCCCC1=O (racemic)", "system": "male Wistar rats", "setting": "intraperitoneal, 40 mg/kg single dose", "Cmax": "2560 ± 850 ng/mL"}
